Experimental data pooled from the literature.
A part holds a random share of what one study measured. “And” joins repeats or separate records; there may be more than shown.

Sample 1
Compound: C[C@@H]1CN(c2ccc(-c3cc(C(=O)NCCOCCOCCOCCOCCOCCOCCNC(=O)/C=C/c4[nH]cc(C(=O)N[C@@H](CC(N)=O)c5ccc(F)c(Cl)c5)c4-c4ccc(Cl)cc4F)ccc3F)cc2NC(=O)c2ccc(F)cc2C(F)(F)F)C[C@H](C)N1C
Mode: degrader
Time: 24 h
WDR5/DCAF1: WDR5/DCAF1 (Homo sapiens, UniProt P61964+Q9Y4B6)
WDR5: WD repeat-containing protein 5 (WDR5, Homo sapiens, UniProt P61964)
| target | technique | measured | tested at | relative to | remaining protein level |
| --- | --- | --- | --- | --- | --- |
| WDR5/DCAF1 | HiBiT luminescence |  | 5.15 nM |  | 86.5% and 113% and 101% |
| WDR5/DCAF1 | HiBiT luminescence |  | 13.3 nM |  | 85.3% and 92% and 82.2% |
| WDR5/DCAF1 | HiBiT luminescence |  | 227 nM |  | 70.9% and 68% and 61% |
| WDR5 | Jess capillary immunoassay | WDR5 over vinculin | 60.3 nM | DMSO | 88.7% and 87.8% and 93% |
| WDR5/DCAF1 | HiBiT luminescence |  | 3800 nM |  | 68.3% and 68% and 60.9% |
| WDR5 | Jess capillary immunoassay | WDR5 over vinculin | 4.69 nM | DMSO | 102% and 107% and 98.4% |
| WDR5 | Jess capillary immunoassay | WDR5 over vinculin | 1821 nM | DMSO | 60.1% and 73.7% and 66.1% |
| WDR5 | Jess capillary immunoassay | WDR5 over vinculin | 25.7 nM | DMSO | 103% and 97.9% and 90.6% |

Sample 2
Species: human
Matrix: microsomes or S9
Tested at: 2 µM
Time: 0.5 h
| SMILES | remaining compound [%] |
| --- | --- |
| Cn1cc(Br)c(=O)c(NC(=O)c2ccc(O)cc2F)c1 | 88.7 |
| COC(=O)c1ccc2c(Br)c(O)c(C(=O)OC(C)(C)C)cc2c1 | 54.1 |
| Cc1cc(C)c2nc(Nc3nc(C)c(C)c(O)n3)nc(C)c2c1 | 29.4 |
| CC(=O)Nc1ccc(Nc2cc(C)nc(-n3nc(C)cc3C)n2)cc1 | 59 |
| Cc1cc(C)c2nc(-c3ccc(Cl)s3)cc(C(=O)O)c2c1 | > 100 |
| O=C(Cn1nc(C(=O)N2CCc3ccccc32)c2cc(F)ccc21)OCc1ccccc1 | 2.68 |
| OCc1onc2c1CCOC2c1ccc(Cl)cc1 (stereo not drawn) | 72.3 |
| O=C(CCS(=O)(=O)c1ccccc1)N(Cc1ccccc1)c1nc2ccccc2s1 | 23.6 |

Sample 3
Target: Mitogen-activated protein kinase kinase kinase 2 (MAP3K2, Homo sapiens, UniProt Q9Y2U5)
Read-out: enzyme activity
Mode: inhibitor
Tested at: 0.5 µM
Relative to: control
| SMILES | remaining activity [%] |
| --- | --- |
| COc1cc2c(N3CCN(C(=O)Nc4ccc(OC(C)C)cc4)CC3)ncnc2cc1OCCCN1CCCCC1 | 103 |
| CN(C)S(=O)(=O)c1ccc2c(c1)/C(=C/c1cc3c([nH]1)CCCC3)C(=O)N2 | 37 |
| CC(C)(C)c1nc2c3cc[nH]c(=O)c3c3cc(F)ccc3c2[nH]1 | 33.9 |
| c1cc(-c2cnn3cc(-c4ccc(OCCN5CCCCC5)cc4)cnc23)ccn1 | 92.1 |
| O=Nc1c(-c2c(O)[nH]c3ccccc23)[nH]c2ccccc12 | 94.6 |
| Cc1ccc(S(=O)(=O)/C=C/C#N)cc1 | 91.8 |
| O=C(c1ccccc1)c1ccc(N2CCOCC2)cc1O | 102 |
| CC(C)n1cnc2c(Nc3cccc(Cl)c3)nc(NCCO)nc21 | 97.6 |
| c1ccc2c(-c3ccncc3)c[nH]c2c1 | 94.9 |
| O=C(O)/C=C/c1cc(Br)c(Br)c(Br)c1Br | 102 |
| COc1cccc(-c2cc(=O)c3ccccc3o2)c1N | 103 |
| COc1ccc(COc2ccc(Cc3cnc(N)nc3N)cc2OC)cc1 | 108 |
| O=C1NC(=O)/C(=C/c2ccc3c(c2)OC(F)(F)O3)S1 | 94 |
| NC(=O)c1cccc(-c2cc(Nc3ccc(OC(F)(F)F)cc3)ncn2)c1 | 79.5 |
| CCCNC(=O)Nc1ccc(Oc2ncnc3cc(OC)c(OC)cc23)cc1Cl | 89.5 |
| O=C1Cc2c([nH]c3ccc(Br)cc23)-c2ccccc2N1 | 94.2 |
| N#C/C(=C(/N)SC1C=CC=CC1)c1cccc(C(O)c2ccncc2)c1 (stereo not drawn) | 96.9 |
| O=c1cc(N2CCOCC2)oc2c(-c3ccccc3)cccc12 | 101 |
| O=C1NC(=O)c2c1c1c3ccccc3[nH]c1n1cncc21 | 97.9 |
| O=C(c1cc2cc(O)ccc2[nH]1)c1cc2cc(O)ccc2[nH]1 | 102 |
| CN1CCN(c2ccc3nc(-c4c(N)c5c(F)cccc5[nH]c4=O)[nH]c3c2)CC1 | 66.2 |
| CNc1cc2c(Nc3cccc(Br)c3)ncnc2cn1 | 74.9 |
| O=C1Nc2ccc(Br)cc2/C1=C/c1cc2c([nH]1)CCCC2 | 93.6 |
| O=C1Nc2ccccc2/C1=C\c1c(Cl)[nH]c2ccccc12 | 94 |
| CCN(CC)CCCCN1c2ccccc2Oc2ccc(Cl)cc21 | 88.2 |

Sample 4
Structure (SMILES): O=C(O)[C@@H]1[C@@H](Cn2nnc3ccccc3c2=O)CC[C@H]1C(=O)c1ccc(OCCC2CCOCC2)cc1
Read-out: cell-free assay
Technique: competition with immobilised ligand
Tested at: 1 µM
| target | remaining binding [%] |
| --- | --- |
| Dual specificity tyrosine-phosphorylation-regulated kinase 1B (DYRK1B, Homo sapiens, UniProt Q9Y463) | 86 |
| Cyclin-dependent kinase 13 (CDK13, Homo sapiens, UniProt Q14004) | 92 |
| LIM domain kinase 2 (LIMK2, Homo sapiens, UniProt P53671) | 100 |
| Tyrosine-protein kinase ABL1, phosphorylated (ABL1, Homo sapiens, UniProt P00519, Q252H) | 92 |
| Beta-adrenergic receptor kinase 1 (GRK2, Homo sapiens, UniProt P25098) | 78 |
| Calcium/calmodulin-dependent protein kinase type 1D (CAMK1D, Homo sapiens, UniProt Q8IU85) | 91 |
| MAP/microtubule affinity-regulating kinase 4 (MARK4, Homo sapiens, UniProt Q96L34) | 100 |
| Cyclin-dependent kinase 4 (CDK4, Homo sapiens, UniProt P11802) | 86 |
| Casein kinase I isoform gamma-1 (CSNK1G1, Homo sapiens, UniProt Q9HCP0) | 99 |
| Ankyrin repeat and protein kinase domain-containing protein 1 (ANKK1, Homo sapiens, UniProt Q8NFD2) | 100 |

For quick reference, copied from above (sample 2):
| SMILES | remaining compound [%] |
| --- | --- |
| Cn1cc(Br)c(=O)c(NC(=O)c2ccc(O)cc2F)c1 | 88.7 |
| Cc1cc(C)c2nc(Nc3nc(C)c(C)c(O)n3)nc(C)c2c1 | 29.4 |
| COC(=O)c1ccc2c(Br)c(O)c(C(=O)OC(C)(C)C)cc2c1 | 54.1 |
| Cc1cc(C)c2nc(-c3ccc(Cl)s3)cc(C(=O)O)c2c1 | > 100 |
| OCc1onc2c1CCOC2c1ccc(Cl)cc1 (stereo not drawn) | 72.3 |
| O=C(Cn1nc(C(=O)N2CCc3ccccc32)c2cc(F)ccc21)OCc1ccccc1 | 2.68 |
| CC(=O)Nc1ccc(Nc2cc(C)nc(-n3nc(C)cc3C)n2)cc1 | 59 |
| O=C(CCS(=O)(=O)c1ccccc1)N(Cc1ccccc1)c1nc2ccccc2s1 | 23.6 |
